Published values from different studies.
A part holds a random share of what one study measured. Substitutions count along the parent as printed.

Study 1
Target: Histone acetyltransferase KAT6A, winged helix 2, GST fusion (KAT6A, Homo sapiens, UniProt Q92794, residues 85-181)
Method: protein binding microarray
Form: double-stranded DNA, one strand shown
Matrix: in vitro
Tested at: not given
Setting: 8-mer, flanks averaged, mean of 2 arrays, mostly near background
Baseline: not given
Direction: higher = stronger binding
Measurement: E-score
Construct (chain): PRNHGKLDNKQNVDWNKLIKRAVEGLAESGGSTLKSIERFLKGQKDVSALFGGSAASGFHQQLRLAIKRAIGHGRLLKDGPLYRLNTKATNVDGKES
GGTACTTA: -0.104
AGGCGGAG: 0.213
ATGTCCCG: -0.049
TGTGGCAA: 0.111
ATAGCGGC: 0.104
GTGTACCA: -0.106
GTGTGTGA: 0.0438
CGGGGCAC: 0.103
AGGCCAGC: 0.0967
ACTGTTAA: -0.00119
GCAACTCA: 0.114
CTCCGTCC: 0.0866
ACGAACAG: 0.0953
GACTGAGC: 0.00975

Study 2
Target: Sal-like protein 4, full length isoform A (SALL4, Homo sapiens, UniProt Q9UJQ4, residues 1-1053)
Chain of UniProt Q9UJQ4 (whole entry, looked up): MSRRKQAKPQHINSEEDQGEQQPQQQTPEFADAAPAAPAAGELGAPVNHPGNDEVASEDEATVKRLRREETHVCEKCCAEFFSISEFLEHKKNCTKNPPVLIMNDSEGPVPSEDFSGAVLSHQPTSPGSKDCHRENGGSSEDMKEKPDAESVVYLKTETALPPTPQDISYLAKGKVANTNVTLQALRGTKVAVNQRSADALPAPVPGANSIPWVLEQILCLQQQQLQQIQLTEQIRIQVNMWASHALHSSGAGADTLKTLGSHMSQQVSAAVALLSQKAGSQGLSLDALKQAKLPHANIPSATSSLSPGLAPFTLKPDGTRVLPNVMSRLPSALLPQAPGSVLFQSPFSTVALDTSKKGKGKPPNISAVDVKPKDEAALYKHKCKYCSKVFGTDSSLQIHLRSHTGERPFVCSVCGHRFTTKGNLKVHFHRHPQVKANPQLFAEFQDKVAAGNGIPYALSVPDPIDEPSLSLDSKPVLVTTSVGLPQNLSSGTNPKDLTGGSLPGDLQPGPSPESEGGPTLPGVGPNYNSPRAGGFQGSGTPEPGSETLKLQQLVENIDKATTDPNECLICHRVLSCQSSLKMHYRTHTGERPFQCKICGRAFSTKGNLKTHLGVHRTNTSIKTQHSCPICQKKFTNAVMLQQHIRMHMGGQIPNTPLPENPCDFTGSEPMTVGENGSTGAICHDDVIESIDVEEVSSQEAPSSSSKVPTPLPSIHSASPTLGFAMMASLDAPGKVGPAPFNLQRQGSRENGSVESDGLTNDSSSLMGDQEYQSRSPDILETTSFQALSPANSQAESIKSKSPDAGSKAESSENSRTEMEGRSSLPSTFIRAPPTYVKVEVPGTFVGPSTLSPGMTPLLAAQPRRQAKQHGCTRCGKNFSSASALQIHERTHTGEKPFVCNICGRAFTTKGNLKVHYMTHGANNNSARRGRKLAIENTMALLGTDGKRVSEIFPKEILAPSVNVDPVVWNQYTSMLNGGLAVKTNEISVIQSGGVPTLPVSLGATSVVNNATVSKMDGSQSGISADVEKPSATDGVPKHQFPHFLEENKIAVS
Method: universal PBM
Form: double-stranded DNA, one strand shown
Matrix: in vitro
Tested at: 600 nM
Setting: 8-mer, flanks averaged, mean of replicates
Direction: higher = stronger binding
Measurement: E-score
CTACGGCC: -0.319
AAAGTAGC: 0.0629
CGACTACA: 0.0729
CCTACTTC: -0.0326
TCAATTGA: 0.238
GCCTGTGA: -0.202
GAGACGAA: 0.0298
GAGGATCC: -0.299
AAAATATG: 0.435
CACGAAGC: -0.25
GCGGAACA: -0.252

Study 3
Target: CCNB3, cyclin fold, Cln2 fusion (human)
Method: yeast growth competition, sequencing
Matrix: yeast
Setting: weak parent motif
Baseline: not given
Direction: higher = stronger binding
Measurement: normalised enrichment score
Starting sequence: GMNC docking peptide (human); KNAKRNLSSEFAN
KNAKANLSSEFAN [R5A]: 0.108
KNGKRNLSSEFAN [A3G]: 0.186
KNAKRNLSLEFAN [S9L]: 0.359
KNAKRNLSSNFAN [E10N]: -0.0881
KNWKRNLSSEFAN [A3W]: 0.528

Single results of other studies
PhoQ, residues 284 288 289 292 302 303 ASASEQ
fold induction (PhoP, residues 12 14 15 18 19 AQCLL (Escherichia coli, UniProt P23836); Sort-seq, measured: YFP reporter; E. coli; PhoQ-PhoP variant library, added: 10 µM Mg2+; baseline: high Mg2+ state, higher = stronger signaling): 4.11

For quick reference, copied from above (study 2):
CCTACTTC: -0.0326
TCAATTGA: 0.238
GCCTGTGA: -0.202
GAGACGAA: 0.0298
GAGGATCC: -0.299
